Assay results pooled from the literature.
Compare with care: the assays were run in different laboratories. ± gives the spread as reported.
CASP7: Caspase-7 (CASP7, Homo sapiens, UniProt P55210)
Gria2: Glutamate receptor 2 (Gria2, Rattus norvegicus, UniProt P19491)

Structure (SMILES) | target | assay | test system | conditions | how to read | quantity | value
Cc1c(C(=O)N[C@H](C(=O)Nc2cccc(C(N)=O)c2)c2ccc(OCc3ccccc3)cc2)cnn1-c1ccccc1 | Genome polyprotein, NS2B-NS3 protease (dengue virus type 2, UniProt P29990) | enzyme activity, fluorogenic AMC substrate |  | 50 µM |  | inhibition | 91%
N#Cc1cnc2sc(C(=O)O)cc2c1N1CCc2[nH]nc(C(=O)N[C@@H](CC(=O)NCCOCCN3CCOCC3)c3cccc(Br)c3)c2C1 | IL1R1 (Homo sapiens, UniProt P14778) | IL-8 release, antagonist | A-431 | 20000 µM, 18 h, added: IL-1β 5 ng/mL | baseline: untreated | remaining activity | 91.9%
Cn1cc(-c2cc(N3CCCCS3(=O)=O)ccc2N[C@H]2CC[C@H](C)CC2)c2cc[nH]c2c1=O (stereo in doubt) | KAT2B (Homo sapiens, UniProt Q92831) | binding, competition with immobilised ligand |  | 1 µM |  | remaining binding | 100%
CC[C@H](NC(=O)[C@@H](NC(=O)[C@@H](NC(C)=O)C(C)C)C(C)(C)C)C(=O)N[C@@H](CC(=O)O)C(=O)COC(=O)c1c(C)cccc1C | CASP7 | enzyme activity, inhibitor |  |  |  | kinact/KI | 25300 M⁻¹ s⁻¹
O=C(O)Cc1cc2c(cc1C(=O)c1ccccc1)OCO2 | Gria2 | glutamate-evoked current, whole-cell patch clamp | HEK-293T | concentration not given, pH 7.4, holding potential -60 mV, added: 10 mM glutamate |  | current amplitude | 587 ± 47 pA
CCCCCC=CC=C1C(=O)C=CC1CC=CCCCC(=O)O (centres unmarked) | 5'-nucleotidase domain-containing protein 1 (NT5DC1, Homo sapiens, UniProt Q5TFE4) | competitive isoTOP-ABPP, item: NT5DC1 cysteine peptide | proteome, soluble, MDA-MB-231 | 100 µM, added: iodoacetamide probe | baseline: DMSO over compound-treated, higher = stronger cysteine blockade | isoTOP-ABPP competition ratio | 1.6
O=C1CCC(N2C(=O)c3cccc4c(Cc5cnn(C6CCN(C(=O)C7(O)CC7)CC6)c5)ccc2c34)C(=O)N1 (centres unmarked) | Cereblon/Ikaros (Homo sapiens, UniProt Q13422+Q96SW2) | protein level, degrader, western blot | NCI-H929 | 10 nM, 4 h |  | remaining activity | 7.36%
CC(C)C(Nc1nccnc1-c1ccccc1)C(=O)NCC1CC1 (centres unmarked) | human kinase panel | binding, KINOMEscan |  | 10000 nM, %Ctrl below 1 |  | number of kinases hit | 1
CC(C)(C(=O)N1CCC(Nc2nc3c(c(=O)[nH]2)CCCC3)CC1)c1ccc(Cl)cc1 | MRGPRD (Homo sapiens, UniProt Q8TDS7, Q182A) | miniGq recruitment, agonist, BRET | HEK293T | Q182A mutant |  | Hill slope | 0.91
CNC1C[S+]2CC[S+]3CC[S+](C1)[Ru-4]321([N]=C=S)[n]2c3ccc(OC)cc3c3c4c(c5cc(F)c[n+]1c5c32)C(=O)NC4=O (centres unmarked) | Tyrosine-protein kinase ABL1, phosphorylated (ABL1, Homo sapiens, UniProt P00519, H396P) | KinomeScan |  | 0.1 µM | baseline: untreated | remaining binding | 98%
Cc1cc(-c2n[nH]cc2C(=O)Nc2ccc(C)c(F)c2)ccn1 | human kinase panel | binding, KINOMEscan |  | 10000 nM, %Ctrl below 1 |  | number of kinases hit | 0
NCc1cc2c(cc1F)C(=O)N(C1CCC(=O)NC1=O)C2 (centres unmarked) | NEK7/CRBN (Homo sapiens, UniProt Q8TDX7+Q96SW2) | degrader, Western blot | Hep3B | 6 h |  | Dmax | 69%
N#CN1CC[C@H](C(=O)Nc2nc3c(s2)CN(C(=O)Cn2cc(COCCOCCOCCOCCNC(=O)CCCC[C@@H]4SC[C@@H]5NC(=O)N[C@@H]54)nn2)CC3)C1 | TUBB (Homo sapiens, UniProt P07437) | probe binding, affinity probe, neutravidin pull-down LC-MS/MS | HEK293T, cell lysate | 5 µM, 1 h, mean of three replicates, unit not given | higher = more pulled down | iBAQ abundance | 1.16e+08
CCOC(=O)[C@@](CC)(CCCSCCOCCOCCN)NC(=O)c1ccc(C2CC2)c(Cc2ccc(F)cc2)n1 | CNR2 (Homo sapiens, UniProt P34972) | radioligand binding |  |  | baseline: CB1 over CB2 (human) | Ki ratio | 39
CC(=O)N[C@@H](CC(C)C)C(=O)N[C@H](C(=O)N[C@@H](Cc1c[nH]cn1)C(=O)N[C@@H](CC(=O)O)C(=O)COC(=O)c1c(C)cccc1C)C(C)(C)C | CASP7 | enzyme activity, inhibitor |  |  |  | kinact/KI | 600 M⁻¹ s⁻¹
C#CC[C@H](NC(=O)c1ccc(C(=O)c2ccccc2)cc1)C(=O)NCCCCCC(=O)N[C@@H](CCCCNC(=O)CSCCNC(=O)CCNC(=O)[C@H](O)C(C)(C)COP(=O)(O)OP(=O)(O)OC[C@H]1O[C@@H](n2cnc3c(N)ncnc32)[C@H](O)[C@@H]1OP(=O)(O)O)C(N)=O | HSPA5 (Homo sapiens, UniProt P11021) | affinity enrichment LC-MS/MS | HEK293 cell extract, PCAF transfected |  | baseline: 1 over empty vector | enrichment ratio | 1.4
Cc1cc(C)cc(COc2cc3c(cc2OCc2cc(C)cc(C)c2)C2CC(O)(Cc4cn(CCOCCOCCNC(=O)CCCCC5SCC6NC(=O)NC65)nn4)CC(C)N2CC3)c1 (centres unmarked) | Conserved oligomeric Golgi complex subunit 5 (Homo sapiens, UniProt Q9UP83) | biotinylated probe pull-down, item: COG5 |  | 10 µM probe | baseline: heavy over light | SILAC ratio | 2.21
O=C(O)Cc1cc2c(cc1C(=O)c1cccc(Cl)c1)OCO2 | Gria2 | glutamate-evoked current, whole-cell patch clamp | HEK-293T | concentration not given, weighted tau, 500 ms pulse, added: glutamate |  | desensitization time constant | 0.7 ± 0.06 ms
COc1ccccc1-c1ccncc1C(=O)Nc1nnc(OCc2ccc(Cl)cc2)s1 | DNA polymerase theta, helicase domain (POLQ, Homo sapiens, UniProt O75417) | ATPase activity, ADP-Glo |  | 0.03 µM, added: ATP 400 µM |  | remaining activity | 55%
CC(=O)Nc1ccc(-c2ccnc(NCC3CCC3)n2)cc1 | human kinase panel | binding, KINOMEscan |  | 10000 nM, %Ctrl below 35 |  | number of kinases hit | 8
CCCCCCCCCCCCCCCC(=O)NCCCC[C@H](NC(=O)[C@H](CCC(=O)O)NC(=O)[C@H](Cc1ccc(O)cc1)NC(=O)[C@H](CCC(=O)O)NC(=O)COCC(=O)NCCCOCCOCCOCCCNC(=O)[C@H](Cc1c[nH]c2ccccc12)NC(=O)[C@H](CCCCN)NC(=O)[C@H](C)NC(=O)[C@H](CCCCNC(=N)N)NC(=O)[C@H](CCC(N)=O)NC(=O)[C@H](Cc1c[nH]cn1)NC(=O)[C@H](CCSC)NC(=O)[C@H](CC(C)C)NC(=O)[C@H](CCC(N)=O)NC(=O)[C@@H](NC(=O)[C@H](CCC(=O)O)NC(=O)C(C)(C)NC(=O)[C@@H](NC(=O)C(C)(C)N)C(C)C)[C@@H](C)CC)C(=O)N[C@@H](CCC(=O)O)C(=O)N[C@@H](Cc1ccc(O)cc1)C(=O)N[C@@H](CCC(=O)O)C(N)=O | PTH1R (Homo sapiens, UniProt Q03431) | agonist | Saos-2 with cAMP reporter | 10 nM, 30 min, ligand-on phase | higher = more cAMP | cAMP luminescence AUC | 84.5 a.u.
COc1cc(/C=C/c2ccc(O)cc2)cc(OC)c1 | O-methyltransferase (Sorghum bicolor, UniProt A0A1B6PFV1) | biolayer interferometry |  | added: SFG+ |  | cooperativity factor σ | 1.24
NS(=O)(=O)c1ccc(CCN2C(=O)c3ccc(N4CCOCC4)cc3C2=O)cc1 | CA2 (Bos taurus, UniProt P00921) | binding |  |  |  | emission maximum | 539 nm
Cn1c(=O)n(C2CCC(=O)NC2=O)c2ccc(C3CCN(CC(=O)Nc4cccc(CS(=O)(=O)N5CC[C@H](Nc6cccc(-c7sc(C(=O)O)c(OCC(=O)O)c7Cl)c6)CC5(C)C)c4)CC3)cc21 (some centres unmarked) | PTPN2 (Homo sapiens, UniProt P17706, H30A/P33A/R35A) | degrader, bio-layer interferometry |  | 62.5 nM | higher = more binding | BLI binding response | 0.339 a.u.
C=CC(=O)N1CCCC(n2c(=O)c3ncccc3n(Cc3ccc(Oc4ccccc4)cc3)c2=O)C1 (centres unmarked) | CCT8 (Homo sapiens, UniProt P50990) | thermal proteome profiling | cell proteome | unit not given | baseline: vehicle | melting temperature shift | -1.31
CC[C@H](C)[C@H](NC(=O)[C@H](CO)NC(=O)[C@H](CO)NC(=O)[C@H](CCC(=O)O)NC(=O)[C@H](CCC(=O)O)NC(=O)[C@H](CCCCN)NC(=O)[C@H](CO)NC(=O)[C@@H](NC(=O)[C@H](CO)NC(=O)[C@H](CC(C)C)NC(=O)[C@H](Cc1ccccc1)NC(=O)[C@H](CCCNC(=N)N)NC(=O)[C@H](C)NC(=O)[C@H](Cc1ccccc1)NC(=O)[C@H](Cc1ccccc1)NC(=O)[C@@H]1CCCN1C(=O)[C@H](CC(C)C)NC(=O)[C@H](C)NC(=O)[C@H](CCCCN)NC(=O)CNC(=O)[C@H](CCC(N)=O)NC(=O)[C@H](CCC(N)=O)NC(=O)[C@H](CC(=O)O)NC(=O)[C@H](CC(N)=O)NC(=O)[C@@H]1CCCN1C(=O)[C@H](Cc1ccc(O)cc1)NC(=O)[C@H](C)NC(=O)[C@@H](N)CCSC)C(C)C)C(=O)N[C@@H](CCCCN)C(=O)N[C@@H](CO)C(=O)N1CCC[C@H]1C(=O)N[C@@H](CO)C(=O)N1CCC[C@H]1C(=O)N[C@@H](CC(=O)O)C(=O)N[C@@H](Cc1c[nH]cn1)C(=O)N[C@@H](CCC(=O)O)C(=O)N[C@H](C(=O)N[C@@H](CO)C(=O)N[C@H](C(=O)N[C@@H](CCCNC(=N)N)C(=O)N[C@@H](CCCCN)C(=O)N[C@@H](Cc1ccc(O)cc1)C(=O)N1CCC[C@H]1C(=O)N[C@@H](CO)C(=O)N[C@@H](CC(=O)O)C(=O)N[C@@H](Cc1c[nH]c2ccccc12)C(=O)N[C@@H](CCC(=O)O)C(=O)N[C@@H](CCC(=O)O)C(=O)N[C@@H](Cc1c[nH]c2ccccc12)C(=O)O)[C@@H](C)O)[C@@H](C)CC | uncharacterized protein (Microcystis aeruginosa MRC, UniProt B2G3C9) | isothermal titration calorimetry |  | concentration not given, pH 8.0, 25 °C |  | binding stoichiometry | 0.8 ± 0.1
CC(=O)N[C@@H](Cc1ccccc1)C(=O)N[C@@H](CC(=O)O)C(=O)N[C@@H](CCC(=O)O)C(=O)N1CCC[C@H]1C(=O)N[C@@H](CC(=O)O)C(=O)COC(=O)c1c(C)cccc1C | CASP7 | enzyme activity, inhibitor |  |  |  | kinact/KI | 644000 M⁻¹ s⁻¹
O=C(O)Cc1cc2c(cc1C(=O)c1ccccc1Br)OCO2 | Gria2 | whole-cell patch clamp | HEK-293T | concentration not given, added: glutamate |  | deactivation time constant | 5.9 ± 0.3 ms
CCCCCCCCCCCCC/C=C/C=O | MTHFD1L (Homo sapiens, UniProt Q6UB35) | competitive isoTOP-ABPP | proteome, soluble, MDA-MB-231 | 100 µM, 60 min, added: iodoacetamide probe | baseline: DMSO over compound-treated, higher = stronger cysteine blockade | isoTOP-ABPP competition ratio | 1

Excerpt of the above:
Structure (SMILES) | target | assay | test system | conditions | how to read | quantity | value
CC(C)C(Nc1nccnc1-c1ccccc1)C(=O)NCC1CC1 (centres unmarked) | human kinase panel | binding, KINOMEscan |  | 10000 nM, %Ctrl below 1 |  | number of kinases hit | 1
CC(C)(C(=O)N1CCC(Nc2nc3c(c(=O)[nH]2)CCCC3)CC1)c1ccc(Cl)cc1 | MRGPRD (Homo sapiens, UniProt Q8TDS7, Q182A) | miniGq recruitment, agonist, BRET | HEK293T | Q182A mutant |  | Hill slope | 0.91
CNC1C[S+]2CC[S+]3CC[S+](C1)[Ru-4]321([N]=C=S)[n]2c3ccc(OC)cc3c3c4c(c5cc(F)c[n+]1c5c32)C(=O)NC4=O (centres unmarked) | Tyrosine-protein kinase ABL1, phosphorylated (ABL1, Homo sapiens, UniProt P00519, H396P) | KinomeScan |  | 0.1 µM | baseline: untreated | remaining binding | 98%
Cc1cc(-c2n[nH]cc2C(=O)Nc2ccc(C)c(F)c2)ccn1 | human kinase panel | binding, KINOMEscan |  | 10000 nM, %Ctrl below 1 |  | number of kinases hit | 0
